Experimental data from different studies.
Protocols differ between the studies behind these lines. “And” joins repeats or separate records; there may be more than shown. ± gives the spread as reported.
Chain of UniProt Q92995 (whole entry, looked up): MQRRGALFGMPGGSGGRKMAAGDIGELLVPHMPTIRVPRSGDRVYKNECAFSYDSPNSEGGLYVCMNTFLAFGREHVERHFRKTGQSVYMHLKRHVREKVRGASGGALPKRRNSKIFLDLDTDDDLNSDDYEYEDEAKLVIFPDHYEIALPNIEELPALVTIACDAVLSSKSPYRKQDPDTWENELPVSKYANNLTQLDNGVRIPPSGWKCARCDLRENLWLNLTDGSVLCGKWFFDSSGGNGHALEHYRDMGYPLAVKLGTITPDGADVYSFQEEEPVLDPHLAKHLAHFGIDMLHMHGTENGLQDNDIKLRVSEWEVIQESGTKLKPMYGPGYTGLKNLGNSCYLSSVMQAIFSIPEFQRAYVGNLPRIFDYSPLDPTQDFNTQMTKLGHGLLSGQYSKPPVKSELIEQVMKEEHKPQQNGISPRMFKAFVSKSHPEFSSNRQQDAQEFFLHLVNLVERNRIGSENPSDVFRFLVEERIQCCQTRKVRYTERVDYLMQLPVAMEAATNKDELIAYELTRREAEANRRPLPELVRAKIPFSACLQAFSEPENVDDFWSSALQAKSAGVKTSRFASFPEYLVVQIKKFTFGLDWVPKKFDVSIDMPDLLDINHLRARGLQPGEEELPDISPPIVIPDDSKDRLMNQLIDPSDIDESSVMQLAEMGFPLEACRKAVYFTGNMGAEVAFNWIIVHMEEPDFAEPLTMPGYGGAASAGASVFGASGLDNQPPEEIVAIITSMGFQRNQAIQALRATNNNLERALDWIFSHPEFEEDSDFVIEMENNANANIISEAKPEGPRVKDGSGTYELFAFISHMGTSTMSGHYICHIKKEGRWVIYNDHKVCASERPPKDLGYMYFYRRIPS
Chain of UniProt Q9UBN7 (whole entry, looked up): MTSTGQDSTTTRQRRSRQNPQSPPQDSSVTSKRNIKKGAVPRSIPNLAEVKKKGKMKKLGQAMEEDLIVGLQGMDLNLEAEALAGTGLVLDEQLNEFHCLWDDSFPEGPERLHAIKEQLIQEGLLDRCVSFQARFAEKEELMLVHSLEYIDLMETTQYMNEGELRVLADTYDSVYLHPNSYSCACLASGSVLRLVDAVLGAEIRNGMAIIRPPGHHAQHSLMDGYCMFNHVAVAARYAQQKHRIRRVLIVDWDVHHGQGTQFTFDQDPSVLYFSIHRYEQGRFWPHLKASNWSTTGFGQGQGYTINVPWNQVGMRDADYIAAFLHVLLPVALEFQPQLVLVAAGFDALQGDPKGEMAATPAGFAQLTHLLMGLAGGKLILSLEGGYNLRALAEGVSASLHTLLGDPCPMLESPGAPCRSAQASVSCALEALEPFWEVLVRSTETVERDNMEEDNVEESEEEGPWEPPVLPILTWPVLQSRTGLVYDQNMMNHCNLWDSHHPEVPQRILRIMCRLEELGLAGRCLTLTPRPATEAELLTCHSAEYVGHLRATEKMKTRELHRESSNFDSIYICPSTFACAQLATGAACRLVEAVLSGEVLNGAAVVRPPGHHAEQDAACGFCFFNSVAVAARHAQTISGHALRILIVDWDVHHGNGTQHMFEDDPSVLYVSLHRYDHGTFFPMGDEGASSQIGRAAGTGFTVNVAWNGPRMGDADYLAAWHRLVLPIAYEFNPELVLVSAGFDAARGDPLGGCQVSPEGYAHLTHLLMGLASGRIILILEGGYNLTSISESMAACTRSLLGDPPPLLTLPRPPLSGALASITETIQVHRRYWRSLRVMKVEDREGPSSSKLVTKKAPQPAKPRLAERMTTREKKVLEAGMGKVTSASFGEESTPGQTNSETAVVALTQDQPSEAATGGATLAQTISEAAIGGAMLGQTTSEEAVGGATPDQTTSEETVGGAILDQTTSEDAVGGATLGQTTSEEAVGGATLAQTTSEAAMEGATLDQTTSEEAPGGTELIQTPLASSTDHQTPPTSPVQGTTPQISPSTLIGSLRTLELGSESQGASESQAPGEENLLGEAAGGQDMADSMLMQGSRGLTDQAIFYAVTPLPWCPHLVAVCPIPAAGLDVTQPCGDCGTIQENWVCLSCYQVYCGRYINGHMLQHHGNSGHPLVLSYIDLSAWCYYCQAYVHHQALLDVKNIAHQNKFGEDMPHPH
Chain of UniProt O75716 (whole entry, looked up): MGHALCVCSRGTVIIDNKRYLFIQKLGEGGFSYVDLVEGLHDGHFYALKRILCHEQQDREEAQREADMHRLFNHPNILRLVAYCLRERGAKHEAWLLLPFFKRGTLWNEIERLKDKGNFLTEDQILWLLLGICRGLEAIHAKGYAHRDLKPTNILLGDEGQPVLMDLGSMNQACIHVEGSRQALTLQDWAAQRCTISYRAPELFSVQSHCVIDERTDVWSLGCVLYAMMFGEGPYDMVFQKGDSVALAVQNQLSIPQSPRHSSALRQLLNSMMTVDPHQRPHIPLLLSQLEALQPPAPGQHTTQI

Structure (SMILES) | tested on | assay | system | conditions | how to read | quantity | value
C[C@@H](NC(=O)N1C(=O)[C@H](Cc2ccnc(N)c2)[C@H]1C(=O)O)C1CCCCC1 | – | – | human | iv infusion, 0.6 mg/kg/h, 24 h | – | time to aPTT Emax | 48 h
COc1cc2cc(-c3ccc(CC(=O)Nc4cc(C(C)(C)C(F)(F)F)no4)cn3)cnc2cc1OC | – | RECIST v1.1 | RET-altered advanced solid tumour patients | oral, 75 mg once daily, phase I | – | partial response as best response | 23%
Oc1ccc(C2NCCc3cc(O)c(O)cc32)cc1O (centres unmarked) | – | ferrozine | cell-free | 100 µM, DMSO solvent | – | Fe2+ chelation | 95.1 ± 1.54%
CC(C)NCC(O)c1ccc(O)c(O)c1 (centres unmarked) | – | – | ventricular cardiomyocytes, C57BL/6 mouse | dose not given, 0.064 s | – | sarcomere length | 1.72 µm
C[C@H]1C[C@H]2CSC(N)=N[C@@]2(c2nc(NC(=O)c3ccc(OC(F)F)cn3)cs2)CO1 | – | – | healthy adults, fed, plasma | oral, 200 mg single dose, 8 h | baseline: baseline, placebo-adjusted | total plasma Aβ change | -56.4%
CN(C)C(=O)Oc1cccc([N+](C)(C)C)c1 | – | neuromuscular block reversal | rat | dose not given, 22 (unit not given), together with: cisatracurium | baseline: T1 twitch | train-of-four ratio | 98.5
COc1ccc(F)cc1C(=O)NCc1ccc(-c2nn([C@@H](C)C(F)(F)F)c(N)c2C(N)=O)cc1 | – | – | Waldenström macroglobulinemia patients | dose not given, all efficacy-evaluable patients | – | overall response rate | 68%
N#Cc1ccc2c(-c3ccncc3)c(-c3ccc(F)cc3)nn2c1 | – | kinase binding, competitor, MIB/MS competition, item: GIN4 | Candida albicans cell lysate | 10 µM | baseline: DMSO | log2 fold change | 0.435
CN(C(=O)n1cnc(-c2ccc[n+]([O-])c2)c1)C1CCCCC1 | – | – | mice, formalin paw test | oral, 0.3 mg/kg, late phase | baseline: vehicle, direction not given | change in licking score | -29%
C[C@@H](O)CCOC(=O)C[C@@H](C)O | – | – | human | oral drink, dose not given, 30 min post dose, median, all participants | – | plasma insulin | 1460 pg/mL
CC(C)c1c(C(=O)Nc2ccccc2)c(-c2ccccc2)c(-c2ccc(F)cc2)n1CC[C@@H](O)C[C@@H](O)CC(=O)O | – | Oil Red O staining | ApoE-/- mouse on high-fat diet | oral gavage, 20 doses every three days, 72 h | – | aortic arch plaque area | 4.62 ± 0.81%
Cn1cc(-c2ccc(-c3cncc(Cl)c3N3CCC4(CCNC4=O)CC3)cc2)cn1 | COLO 205 | gene expression, microarray, item: CDKN1C mRNA | – | concentration not given, 2 h | baseline: untreated cells | log2 fold change | 2.35
CC1(C)CCC(c2ccc(Cl)cc2)=C(CN2CCN(c3ccc(C(=O)NS(=O)(=O)c4ccc(N[C@H](CCN5CCOCC5)CSc5ccccc5)c(S(=O)(=O)C(F)(F)F)c4)cc3)CC2)C1 | – | cell kill, PI exclusion flow cytometry | neoplastic B cells, human, thawed lymph node | 24 h | – | EC50 | 1470 nM
NC(=O)c1cnc2[nH]ccc2c1N[C@@H]1[C@@H]2CC3C[C@H]1C[C@@](O)(C3)C2 | – | flow cytometry | Japanese healthy men, blood | oral, 10 mg twice daily, 72 h after day 7 dose | baseline: baseline | total naive T-cell change | -6.3%
CC1(C)CCC2(CC1)N[C@@H](C(=O)N[C@@H]1CC[C@@H](C(N)=O)OC1)[C@H](c1ccnc(Cl)c1F)[C@]21C(=O)Nc2cc(Cl)ccc21 | – | – | human, solid tumours | 60 mg/day, RECIST | baseline: patients | stable disease | 33.3%
CC(C)[C@H](NC(=O)[C@H](Cc1ccc(O)cc1)NC(=O)[C@H](Cc1ccc(O)cc1)NC(=O)[C@@H]1CCCN1C(=O)[C@H](CCC(=O)O)NC(=O)[C@H](CCC(=O)O)NC(=O)[C@H](Cc1c[nH]c2ccccc12)NC(=O)[C@@H]1CCCN1C(=O)[C@@H](NC(=O)[C@H](CCC(N)=O)NC(=O)c1ccc2c(c1)C(=O)OC21c2ccc(O)cc2Oc2cc(O)ccc21)C(C)C)C(=O)N[C@H](C(=O)N[C@@H](CCCCN)C(=O)N[C@@H](CCCCN)C(=O)N[C@@H](CO)C(=O)N[C@@H](CO)C(=O)NCC(=O)NCC(N)=O)C(C)C | – | added benefit of NERVE | human head and neck surgery, nerves | 500 mg, slight added benefit | baseline: white light | share of responses | 35.7%
Fc1cccc2c1C#Cc1cccc(F)c1C#C2 | – | UV spectroscopy | methanol | room temperature, together with: benzyl azide | – | second-order rate constant | 0.00372 M⁻¹ s⁻¹ and 0.00363 M⁻¹ s⁻¹
CC(C)[C@H](C(=O)Nc1ccc(C(=O)NO)cc1)c1ccccc1 | – | – | human | 1.6 2 weeks after dosing | higher = worse hearing | pure-tone average, left ear | -2 dB
OC[C@H]1OC(O)[C@H]([18F])[C@@H](O)[C@@H]1O (some centres unmarked) | – | PET | NSCLC and melanoma patients, primary tumours | dose not given, median of five patients | – | SUVmean | 4.82
CC[C@@H]1[C@H](F)C(=O)N[C@@H]1COc1nccc2cc(C(N)=O)c(OC)cc12 | STK16 (Homo sapiens, UniProt O75716) | ATP-site probe binding, ActivX profiling | THP-1 cell lysate | 0.2 mM, Lys2 site | – | inhibition | 35.1%
O=C(O)CNc1ncnc2ccccc12 | Ubiquitin carboxyl-terminal hydrolase 13, ZnF-UBD domain (USP13, Homo sapiens, UniProt Q92995) | – | – | – | – | Kd | > 1000 µM
OC(CCN1CCCCC1)(c1ccccc1)C1CC2C=CC1C2 (centres unmarked) | – | resting-state EEG | healthy elderly humans | oral, 2 mg, eyes open, LS mean | baseline: baseline | change in EEG Beta1-power Pz-O2 | -1.7%
C[C@H]1[C@H](OC(=O)CCC(=O)O)O[C@@H]2O[C@@]3(C)CC[C@H]4[C@H](C)CC[C@@H]1[C@@]24OO3 | – | – | MOLM-13 xenograft mice | 100 mg/kg twice daily, 9 days | – | median survival | 17 days
COc1cc(Nc2ncc3c(n2)-c2ccc(Cl)cc2C(c2c(F)cccc2OC)=NC3)ccc1C(=O)O | – | – | mouse, OS-1 osteosarcoma xenograft | 10.4 mg/kg | direction not given | median response score | 2

Structure (SMILES) | tested on | assay | system | conditions | how to read | quantity | value
Cn1cc([C@H]2C[C@H]3CSC(N)=N[C@@]3(c3ccc(F)cc3F)CO2)cn1 | – | item: Aβx-40 | wild-type mouse, brain | subcutaneous, 10 mg/kg, 13 h | – | brain Aβ40 level | 2.96 ng/g
CCCCCCCCCCCCCCCCCC1NCCc2cc(O)c(O)cc21 (centres unmarked) | – | ferrozine | DMSO | 100 µM | – | Fe2+ chelation | 22.4 ± 1.53%
Cc1n[nH]c2ccc(-c3cc(OC[C@@H](N)Cc4ccccc4)cnc3-c3ccoc3)cc12 | – | kinase binding, competitor, MIB/MS competition, item: ATG1 | Candida albicans cell lysate | 1 µM | baseline: DMSO | log2 fold change | -0.147
N#Cc1ccc2c(c1)[C@H]1CCCN(C(=O)c3ccc4[nH]cnc4c3)[C@H]1C2 | – | – | human clinical trial | oral, 240 mg once daily, 28 d | – | 1,5-anhydroglucitol change from baseline | -0.1 mg/L
COC[C@@H](c1ccc(C(F)(F)F)cc1)N1CCN(C2(C)CCN(C(=O)c3c(C)ncnc3C)CC2)C[C@@H]1C | – | – | HIV-1 patients, plasma | 5 mg, week 2 | baseline: baseline | change in HIV-1 RNA | -0.89 log10 copies/mL
CN(CCOc1ccc(CC2SC(=O)NC2=O)cc1)c1ccccn1 (centres unmarked) | – | IPA pathway analysis | human liver spheroids | 1 µM, 10 d | – | fatty acid beta-oxidation I pathway | increased
N[C@H](C(=O)O)c1cc(O)cc(O)c1 | – | field recording | rat hippocampal slice CA3 | 50 µM, 10 min | baseline: baseline | population spike amplitude | 126 ± 17.2%
CO[C@H]1CC[C@H](N2C(=O)CNc3ncc(-c4ccc(C(C)(C)O)nc4)nc32)CC1 | – | flow cytometry | stimulated monocytes, human, blood | 30 mg single dose, 3 h, median | baseline: baseline | pAKT change from baseline | -56.5%
C[C@H](Oc1ccc(Br)cc1-c1ccon1)C(=O)O | – | last response peak | human, tibialis anterior muscle | 400 mg, 30 Hz, single ascending dose | – | difference from placebo | 12.1%
Cc1nn(-c2nc3c(F)cc(F)cc3s2)c(O)c1C(c1ccc(C(F)(F)F)cc1)c1c(C)nn(-c2nc3c(F)cc(F)cc3s2)c1O | – | item: fat necrosis | mouse, cerulein-induced acute pancreatitis | 25 mg/kg | direction not given | histology score | 0
CCOc1c([C@H](C)n2nc(C)c3c(N)ncnc32)cc(Cl)c(F)c1[C@@H]1CNC(=O)C1 | – | Olink proximity extension proteomics, item: TNFRSF6B | human FL or MZL patients, plasma | dose not given, week 8 | baseline: baseline | plasma protein level change | -36%
O=S(=O)(NCCNC/C=C/c1ccc(Br)cc1)c1cccc2cnccc12 | – | – | mouse zygotes | 20 µM, 24 h post-hCG | – | embryos reaching 8-cell | 0%
c1ccc(-c2n[nH]cc2-c2ccnc3ccccc23)nc1 | – | kinase binding, competitor, MIB/MS competition, item: RIM8 | Candida albicans cell lysate | 10 µM | baseline: DMSO | log2 fold change | 1.59
CSCCNc1nc(SCCC(F)(F)F)nc2c1ncn2[C@@H]1O[C@H](COP(=O)(O)OP(=O)(O)C(Cl)(Cl)P(=O)(O)O)[C@@H](O)[C@H]1O | – | platelet aggregation, light transmittance aggregometry | human, platelet-rich plasma | dose not given, 15 min, IPA above 80 %, together with: TRAP 5 µM | baseline: patients | patients with IPA above threshold | 5.1%
O=C(OC(C(F)(F)F)C(F)(F)F)N1CCN(Cc2cccc(Oc3ccccc3)c2)CC1 | – | PET blocking study | rhesus monkey, brain FCX | 0.01 mg/kg, compound pretreatment, together with: [18F]T-401 tracer | – | k3 | 0.075 min⁻¹
C=CCn1c(=O)c2cnc(Nc3ccc(N4CCN(C)CC4)cc3)nc2n1-c1ccc2c(n1)[C@@](O)(CC)CC2 | – | – | OVCAR-3 xenograft, NOD/SCID mice | oral, 80 mg/kg, day 56, once daily intermittent | – | tumour growth inhibition | 91.6%
CN[C@@H]1COc2c(S(=O)(=O)NC(=O)Nc3c4c(cc5c3CCC5)CCC4)cnn2C1 | – | item: IL-18 | human participants, whole blood ex vivo | 900 mg single dose, 72 h, IL-18, circulating, adjusted for, together with: LPS/ATP | baseline: baseline | inhibition | 42.1%
COc1cccc2c(N3CCC(CCP(=O)(O)O)CC3)ncnc12 | – | – | mouse, EMT6 tumour, tumour | 50 mg/kg | – | duration of cGAMP increase | > 24 h
Cn1cc(Nc2nccc(-c3ccc4c(c3)CN(C3COC3)CC[C@H]4NC(=O)c3cn(C(C)(C)C)nn3)n2)cn1 | – | item: vitamin C antioxidant action | splenic B cells, Mus musculus | 30 mg/kg, together with: in vivo anti-IgD activation | baseline: vehicle, direction not given | pathway activation z-score | -0.905
O=C(O)CNC(=O)Cc1ccccc1 | – | – | ventricular cardiomyocytes, C57BL/6 mouse | dose not given, 0.452 s | – | sarcomere length | 1.71 µm
O=C(O)CCC(=O)c1ccc2c(c1)CCC(=O)N2 | Protein deacetylase HDAC6, ZnF-UBD domain (HDAC6, Homo sapiens, UniProt Q9UBN7) | – | – | – | – | Kd | 104 µM
O=C(CCCCCCc1ccccc1)c1ncc(-c2ccccn2)o1 | – | – | mouse, chronic constriction injury, ipsilateral paw | i.p., 30 mg/kg, 1, 3, 6 h | – | cold allodynia | decreased
NCC(=O)Nc1cncc(-c2nn3c(=O)cc(N4CCNCC4)nc3s2)c1 | – | ADP-induced platelet aggregation, light transmission aggregometry | human, stable CAD on aspirin, ex vivo platelets | subcutaneous, 0.04 mg/kg, 120 min post-dose, median value, together with: ADP 20 µM | – | inhibition | 1.65%

A few entries again:
Structure (SMILES) | tested on | assay | system | conditions | how to read | quantity | value
CN(C)C(=O)Oc1cccc([N+](C)(C)C)c1 | – | neuromuscular block reversal | rat | dose not given, 22 (unit not given), together with: cisatracurium | baseline: T1 twitch | train-of-four ratio | 98.5
COc1ccc(F)cc1C(=O)NCc1ccc(-c2nn([C@@H](C)C(F)(F)F)c(N)c2C(N)=O)cc1 | – | – | Waldenström macroglobulinemia patients | dose not given, all efficacy-evaluable patients | – | overall response rate | 68%
N#Cc1ccc2c(-c3ccncc3)c(-c3ccc(F)cc3)nn2c1 | – | kinase binding, competitor, MIB/MS competition, item: GIN4 | Candida albicans cell lysate | 10 µM | baseline: DMSO | log2 fold change | 0.435
CN(C(=O)n1cnc(-c2ccc[n+]([O-])c2)c1)C1CCCCC1 | – | – | mice, formalin paw test | oral, 0.3 mg/kg, late phase | baseline: vehicle, direction not given | change in licking score | -29%
